Results of several laboratories.
Numbered parts are unrelated; each lists some results of a single study.

Set 1 — method: protein-binding microarray; form: double-stranded DNA, one strand shown; sample: in vitro; tested at: 250 nM; setting: 60-bp whole probe; together with: salmon DNA 0.4 mg/ml; baseline: random background probes; reading: higher = stronger binding; endpoint: log fluorescence; constant ends, left off below: GCCTAGCAC … GTCTTGATTCGCTTGACGCTGCTG
Target: Interferon regulatory factor 7, full length, phosphomimetic (IRF7, Homo sapiens, UniProt Q92985, residues 1-503, S101K/S471D/S472D/S475D/S476D/S477D/S483D/S484D/S487D)
Construct (chain): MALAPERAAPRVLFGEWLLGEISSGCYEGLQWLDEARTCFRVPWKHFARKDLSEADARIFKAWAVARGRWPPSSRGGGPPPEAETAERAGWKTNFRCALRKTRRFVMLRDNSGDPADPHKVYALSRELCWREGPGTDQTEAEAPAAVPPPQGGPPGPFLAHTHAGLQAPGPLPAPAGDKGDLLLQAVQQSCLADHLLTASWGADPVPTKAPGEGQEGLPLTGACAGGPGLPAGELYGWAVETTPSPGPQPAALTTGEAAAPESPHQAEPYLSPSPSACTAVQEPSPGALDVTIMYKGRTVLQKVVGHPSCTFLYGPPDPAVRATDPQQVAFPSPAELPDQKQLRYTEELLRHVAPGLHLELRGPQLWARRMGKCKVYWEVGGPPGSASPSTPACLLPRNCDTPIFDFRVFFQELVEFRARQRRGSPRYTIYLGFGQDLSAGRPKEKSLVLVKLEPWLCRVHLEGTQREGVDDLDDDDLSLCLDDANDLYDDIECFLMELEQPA
TCAAGAATCACAACTAGGACTGTGCTA: 0.0764 z-score
GACGAACTGAGTCTCGATACGTGCTAG: 0.647 z-score
TTAGGTATTGGACTGGGTTAGTGCTAG: -0.282 z-score
GACGGACTGGGTCACGGGACGTGCTAG: -0.639 z-score
TTAGTTATCGGTTTCGGTTAGTGCTAG: 9.43 z-score
TCACCTTCCTCTTTTACACTGTGCTAG: 1.2 z-score
TTAGATCTTAGTCTCGATTAGTGCTAG: 2.05 z-score
TTAGGTATCGGTTTCGGTTGGTGCTAG: 10.7 z-score
TTTGGACTGGACACTGGGTTAGTGCTA: -0.544 z-score
GCGGTTGGATCACAAGGTCAGTGCTAG: -0.797 z-score
CTAATTTTTACTTTCTGAATGTGCTAG: 1.62 z-score
GACGGCTTCGGTCTCGGGACGTGCTAG: -0.0482 z-score
GACGGTCTCGGATTGGGGACGTGCTAG: 2.47 z-score
TTAGATTTCAGACCGGATTAGTGCTAG: 0.39 z-score
GACGGACTGGGTATTGGGACGTGCTAG: -0.736 z-score
TTAGAACTGCGTCTCGATTAGTGCTAG: 0.118 z-score
CCTAGTTGTACTTTCTATCTGTGCTAG: 1.1 z-score
TTAGGTCCCCTTTTCCTTTAGTGCTAG: 2.46 z-score
TTAGGTTTGGACACTGGGTTAGTGCTA: -0.352 z-score
TTAGAACTGAGATTGGATTAGTGCTAG: -0.226 z-score
GACGGTTCACTTTTCCTGACGTGCTAG: 0.914 z-score
GACGATCTCAGACTGGAGAGGTGCTAG: -0.705 z-score
GACGCTATCGACTTTCGGGACGTGCTA: 0.159 z-score
TCACCATCCTGTATGGAACTGTGCTAG: -0.0884 z-score
TTAGGTTTCGGTTTCGGTGAGTGCTAG: 14.1 z-score

Set 2 — method: aptamer microarray, sandwich; form: DNA with 2'F-ANA; sample: in vitro; tested at: 200 nM; together with: Cy3 exosite-II aptamer, 400 nM; reading: higher = stronger binding; endpoint: mean fluorescence intensity; sequence: GGTTGGTGTGGTTGG
Target: Prothrombin, mature alpha-thrombin (F2, Homo sapiens, UniProt P00734)
Setting: whole 15-mer aptamer, many near background
2'F-ANA at 2 4 9 10 11 13 15: 71.4 a.u.
2'F-ANA at 1 2 5 6 9 10 11 12 15: 51.9 a.u.
2'F-ANA at 1 2 7 9 10 11 12 14 15: 55.3 a.u.
2'F-ANA at 1 2 3 4 6 8 10 12: 66.6 a.u.
2'F-ANA at 1 2 3 4 7 8 11 12 13: 270 a.u.
2'F-ANA at 1 4 5 7 8 13: 53.8 a.u.
2'F-ANA at 4 5 11 13 15: 57.4 a.u.
2'F-ANA at 2 3 5 8 9 12 13: 162 a.u.
2'F-ANA at 2 7 8 10 12 14 15: 103 a.u.
2'F-ANA at 1 2 4 6 7 8 9 11 12 13: 157 a.u.
2'F-ANA at 1 2 3 5 6 9 10 11 12 15: 52.4 a.u.
2'F-ANA at 2 5 8 12 13: 120 a.u.
2'F-ANA at 1 2 4 7 13 15: 96.1 a.u.
2'F-ANA at 1 2 4 5 7 8 9 13 14: 45.8 a.u.
2'F-ANA at 4 5 7 8 10 12 13 14: 45.6 a.u.
2'F-ANA at 1 2 3 4 6 8 11 13 14 15: 60.8 a.u.
2'F-ANA at 1 4 6 7 8 9 10 14 15: 51.7 a.u.
2'F-ANA at 3 7 8 11 13 14 15: 584 a.u.
2'F-ANA at 2 5 7 8 9 10 11 12: 49 a.u.
2'F-ANA at 1 3 4 5 6 7 8 14 15: 47.1 a.u.
2'F-ANA at 2 3 5 6 7 8 10 11 14: 78.7 a.u.
2'F-ANA at 2 5 11 14 15: 43.1 a.u.
2'F-ANA at 2 5 13 14: 45.9 a.u.
2'F-ANA at 4 5 6 9 10 11 13: 49.1 a.u.
2'F-ANA at 2 3 6 7 9 10 11 13 14: 227 a.u.

Set 3 — method: RNA Bind-n-Seq; form: RNA; sample: in vitro; tested at: 365 nM; baseline: no-protein control; reading: higher = stronger binding; endpoint: RBNS enrichment (R)
Target: RNA binding protein fox-1 homolog 2, RRM domain, GST-SBP tag (RBFOX2, Homo sapiens, UniProt O43251-10, residues 100-194)
Setting: natural RNA segment, single round, ends assumed
Constant ends, left off below: GGGAGUUCUACAGUCCGACGAUC … UGGAAUUCUCGGGUGCCAA
Construct (chain): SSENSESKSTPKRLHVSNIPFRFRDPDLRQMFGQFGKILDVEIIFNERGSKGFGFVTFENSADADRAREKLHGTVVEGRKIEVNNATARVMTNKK
GUCAUGUGCCGUGCCCUUUUCUGUUUCUGUGUAUCCUAUUGCUGGUGACUCUGUGUGAACUGGCCUUUGGGAAAGAUCAGAGAGGGCAGAGGUGGCACAGGACAGUAAAG: 0.35
CCUGCUGUCCUGUUGGAAAGUUCUGGAAGUUAAGGACGGAGAGUGCUGUUUGUAAUGCAGUCUUCCAUUCUGUGAGUCUUUGAUUCUCCAUGCUGGCUAGAAGUUGGCCA: 0.338
UGAGCUGCAGGAGGCAGGGGCAGCCGGGACAUGGGCACUUCAGGGCCGAGCCUCUGUGUUGCCUUCUCCUCUGUCCUCAGACUCAGGAGGCAGGUGGCAAUCUCCUCGCC: 0.23
GUGUGGCGAGAGCCUGGGCCAGCCCACAGCGUUCCUAGUCAGGCAGCCACACCUUGGUCCUCAUCUUGGUCCCUUCCAAUCUGAAACCUCGUGCCUGGCUCGUCUGCCAC: 0.366
GUGUCACCCUCUACCAUCUGUAAACAACUGGGUGCCUUCCCCGACCACACCCCAAUGCCUUCCCAGCUUGGAAGCCAAGGCAGCUGAUGAAGGGAGCUCAGGAGAGCCGU: 0.778
CUGGUGACUAUGGGUUCCUCUUGUUUGUAGGGAACGGUGGCUCCAGGUGGAGGCAUCAAUCUGUUGGGUUCUGGUUCCCGGCUGCCUUUGGUUUUGAAAGUCUCUUCUCU: 0.569
GUUGUUGUGACCCCCAACCAUAAAAUCAUUUUGUUGCUAUUUCAUGUCUGUAAUUUUGCUAGUUCAUGAACUGUAAUGUAAACAUCUGGUAUGAAGAAUAUCUGAUAUGC: 0.516
GUCCCCUUUUCAAUGAACCAUCAUGACUGUCCCAGUGUCGGAUGCAAGGGUGCCACGGGCUCUGAAGCUAACGGGCAUCCCACGCGGUCAGGUGUAGUAGUGAACUUGAA: 0.551
AUUCGAAGGGACUGUGCACGCUCUAAAGAUCACAGUUGCUUCUAAGCCAGAUUUCAUUUCUAUUCUUGUUUUAUGUGCCAAACCCCAAAGUGCAUUGGGCCUGAAUCUCU: 0.773
CAGCAUUAAAUAAAACAUUUCAAAUAUAUUGUAUAUGGCUUUAGUUGUAAACUAUACUGCAUGCUGACAGAGAAGCGCUCUUUUAGCUAAGCCCAGAACUUCUCUUUUGA: 0.717
CCUCUUGAAUCCAAGUGUCUGUAGCUUUGGAGACUGAGGGUCUGUGAAUAAAGGCGGUGGCACUGGAGUGGCUCCAUGGCAGUCUGUCAGGUCCUACCCUGAAGCCCGCA: 0.376
UAUUUUCUUCUCCUCCCCUCCUCUUCCUCCUUUCUCUUUGCAUUCAAGAUUAUGAAACUUUGCUGUGGGCCCUGCCUUUCCUUCACUUCUUCCUGUUCACCCUGGUGGUG: 2.42

Set 4 — organism: Saccharomyces cerevisiae; observed: binding; method: yeast competitive growth sequencing; form: peptide; setting: cyclin B2-Cln2 chimera; reading: direction not given; endpoint: enrichment score
DSDSDSEGGAAGGEAD: 2.11
AIRKMREDRWAVIAKM: -1.65
IFNKPECGRVQRAIFQ: -0.5
EAAPPTQEAQGETEPT: -0.253
NRLLKLFTRCLTPLVP: -1.96
IPMIAKNLMCELDE: 0.0767
TQERKQIHCLSEDELS: -0.588
RRRIKLPESDSSED: 2.04
TLPYDLACTGGDFVLF: 0.949
VEEEFFALRKRTPSAG: 0.897

A few entries again (set 3):
UGAGCUGCAGGAGGCAGGGGCAGCCGGGACAUGGGCACUUCAGGGCCGAGCCUCUGUGUUGCCUUCUCCUCUGUCCUCAGACUCAGGAGGCAGGUGGCAAUCUCCUCGCC: 0.23
GUGUGGCGAGAGCCUGGGCCAGCCCACAGCGUUCCUAGUCAGGCAGCCACACCUUGGUCCUCAUCUUGGUCCCUUCCAAUCUGAAACCUCGUGCCUGGCUCGUCUGCCAC: 0.366
GUGUCACCCUCUACCAUCUGUAAACAACUGGGUGCCUUCCCCGACCACACCCCAAUGCCUUCCCAGCUUGGAAGCCAAGGCAGCUGAUGAAGGGAGCUCAGGAGAGCCGU: 0.778
CUGGUGACUAUGGGUUCCUCUUGUUUGUAGGGAACGGUGGCUCCAGGUGGAGGCAUCAAUCUGUUGGGUUCUGGUUCCCGGCUGCCUUUGGUUUUGAAAGUCUCUUCUCU: 0.569
GUUGUUGUGACCCCCAACCAUAAAAUCAUUUUGUUGCUAUUUCAUGUCUGUAAUUUUGCUAGUUCAUGAACUGUAAUGUAAACAUCUGGUAUGAAGAAUAUCUGAUAUGC: 0.516
GUCCCCUUUUCAAUGAACCAUCAUGACUGUCCCAGUGUCGGAUGCAAGGGUGCCACGGGCUCUGAAGCUAACGGGCAUCCCACGCGGUCAGGUGUAGUAGUGAACUUGAA: 0.551
AUUCGAAGGGACUGUGCACGCUCUAAAGAUCACAGUUGCUUCUAAGCCAGAUUUCAUUUCUAUUCUUGUUUUAUGUGCCAAACCCCAAAGUGCAUUGGGCCUGAAUCUCU: 0.773
CAGCAUUAAAUAAAACAUUUCAAAUAUAUUGUAUAUGGCUUUAGUUGUAAACUAUACUGCAUGCUGACAGAGAAGCGCUCUUUUAGCUAAGCCCAGAACUUCUCUUUUGA: 0.717
CCUCUUGAAUCCAAGUGUCUGUAGCUUUGGAGACUGAGGGUCUGUGAAUAAAGGCGGUGGCACUGGAGUGGCUCCAUGGCAGUCUGUCAGGUCCUACCCUGAAGCCCGCA: 0.376
